{"data": "Measurements pooled from the literature", "note": "Parts stem from different laboratories: compare values within a part only. Substitutions count along the parent as printed."}
{"data": "Block 1", "target": "Sal-like protein 4, full length isoform A (SALL4, Homo sapiens, UniProt Q9UJQ4, residues 1-1053)", "technique": "universal PBM", "molecule type": "double-stranded DNA, one strand shown", "sample": "in vitro", "tested at": "600 nM", "setting": "8-mer, flanks averaged, mean of replicates", "reading": "higher = stronger binding", "UniProt Q9UJQ4, sequence (whole entry, looked up)": "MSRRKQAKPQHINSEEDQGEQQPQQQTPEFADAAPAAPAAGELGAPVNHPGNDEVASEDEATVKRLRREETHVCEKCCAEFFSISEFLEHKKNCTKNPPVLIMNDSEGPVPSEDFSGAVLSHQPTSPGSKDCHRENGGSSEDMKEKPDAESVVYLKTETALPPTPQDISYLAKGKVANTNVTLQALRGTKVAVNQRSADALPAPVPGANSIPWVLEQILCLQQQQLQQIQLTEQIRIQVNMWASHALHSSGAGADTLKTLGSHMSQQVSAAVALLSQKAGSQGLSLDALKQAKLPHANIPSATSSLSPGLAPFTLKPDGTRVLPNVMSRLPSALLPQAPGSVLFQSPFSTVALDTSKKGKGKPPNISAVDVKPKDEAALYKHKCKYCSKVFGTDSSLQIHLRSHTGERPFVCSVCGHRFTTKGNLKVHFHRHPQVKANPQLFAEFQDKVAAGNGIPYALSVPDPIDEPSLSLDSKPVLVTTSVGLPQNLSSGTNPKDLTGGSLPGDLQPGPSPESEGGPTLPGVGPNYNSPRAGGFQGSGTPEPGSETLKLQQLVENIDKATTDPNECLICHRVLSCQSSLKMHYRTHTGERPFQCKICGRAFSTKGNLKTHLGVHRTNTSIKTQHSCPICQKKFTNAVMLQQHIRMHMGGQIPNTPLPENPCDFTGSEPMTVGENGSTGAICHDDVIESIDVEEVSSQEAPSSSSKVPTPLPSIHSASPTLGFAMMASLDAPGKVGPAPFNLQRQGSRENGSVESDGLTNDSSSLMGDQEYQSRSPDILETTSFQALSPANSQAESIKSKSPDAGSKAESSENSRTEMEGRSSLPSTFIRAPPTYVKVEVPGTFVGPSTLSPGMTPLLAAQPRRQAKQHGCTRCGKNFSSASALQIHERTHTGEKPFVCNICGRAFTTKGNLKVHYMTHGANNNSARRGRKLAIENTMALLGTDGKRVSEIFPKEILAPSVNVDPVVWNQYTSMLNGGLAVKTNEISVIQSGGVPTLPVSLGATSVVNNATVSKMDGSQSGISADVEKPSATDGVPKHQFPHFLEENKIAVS"}
{"Strand": "ACAAATTC", "E-score": 0.244}
{"Strand": "ACTTTGAT", "E-score": 0.0779}
{"Strand": "CACCCCTC", "E-score": -0.349}
{"Strand": "CATAAATC", "E-score": 0.39}
{"Strand": "AAATGAGC", "E-score": 0.144}
{"Strand": "GTAGTGAA", "E-score": 0.0172}
{"Strand": "AGATTCGG", "E-score": -0.007}
{"Strand": "AACCGCCT", "E-score": -0.0737}
{"Strand": "CACGACTC", "E-score": -0.081}
{"Strand": "GCGATAAC", "E-score": 0.112}
{"Strand": "AAAGATCC", "E-score": 0.0111}
{"Strand": "ACAGCACT", "E-score": -0.0299}
{"Strand": "GTTATGGA", "E-score": 0.301}
{"Strand": "AGGGAGCA", "E-score": -0.27}
{"Strand": "CCAGATAA", "E-score": 0.202}
{"Strand": "CTTGCCAC", "E-score": -0.0267}
{"Strand": "CTTTACTC", "E-score": 0.139}
{"Strand": "AAAGTCTC", "E-score": 0.0683}
{"Strand": "CGTTTACC", "E-score": 0.00992}
{"Strand": "ATTATGAG", "E-score": 0.327}
{"Strand": "TAGCCTGA", "E-score": -0.0754}
{"Strand": "AAGATCAG", "E-score": -0.153}
{"Strand": "ATCACGCA", "E-score": -0.033}
{"Strand": "AGACGCGG", "E-score": -0.134}
{"data": "Block 2", "target": "Ras GTPase-activating protein-binding protein 1, full length (G3BP1, Homo sapiens, UniProt Q13283)", "technique": "RNA Bind-n-Seq", "molecule type": "RNA", "sample": "in vitro", "tested at": "200 nM", "setting": "whole 134-nt RNA, ends assumed", "together with": "150 mM LiCl", "relative to": "input library", "reading": "higher = stronger binding", "library": "7-deaza-guanosine replaces G", "all sequences stand within": "GGGAGUUCUACAGUCCGACGAUC … UGGAAUUCUCGGGUGUCAAGG", "UniProt Q13283, sequence (whole entry, looked up)": "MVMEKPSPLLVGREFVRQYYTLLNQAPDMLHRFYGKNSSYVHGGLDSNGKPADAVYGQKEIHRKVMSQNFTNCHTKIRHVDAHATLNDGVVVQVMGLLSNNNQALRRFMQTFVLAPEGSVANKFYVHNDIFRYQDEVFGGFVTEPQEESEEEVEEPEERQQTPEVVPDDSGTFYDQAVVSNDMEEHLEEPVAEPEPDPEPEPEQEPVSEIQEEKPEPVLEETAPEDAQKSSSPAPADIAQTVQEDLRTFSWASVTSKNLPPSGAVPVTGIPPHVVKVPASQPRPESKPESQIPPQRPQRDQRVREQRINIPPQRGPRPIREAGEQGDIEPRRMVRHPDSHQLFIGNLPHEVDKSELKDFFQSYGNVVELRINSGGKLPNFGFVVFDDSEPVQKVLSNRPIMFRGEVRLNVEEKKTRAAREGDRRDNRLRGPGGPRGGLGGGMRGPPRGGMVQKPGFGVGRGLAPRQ"}
{"Strand": "UGGCCCUGGUGGCUUGCGGGGAGGAAGAGGUGGCCUCAUGGAUCGUGGUGGUCCCGGUGGAAUGUUCAGAGGUGGCCGUGGUGGAGACAG", "log2 enrichment": 0.545}
{"Strand": "AAGUCCUGUGCUACACAUCGUAUGUACCGAAUCGGUGGAAAAAAAGGUUUUUUUGGAAAGUAUUAUGUUACGCCGUUCGGAUCUGCACUU", "log2 enrichment": -2.17}
{"Strand": "GUCCUGUGCUACACAUCGUAUGUACCGAAUCAAACCCCCCCAAAUUUAAACCCCCAAAAAAGUAUUAUGUUACGCCGUUCGGAUCUGCAC", "log2 enrichment": 1.03}
{"Strand": "UCCUCAAGUCCUGUGCUACACAUCGUAUGUACCGAAUCGGAAAGGAGGAGGAAAGUAUUAUGUUACGCCGUUCGGAUCUGCACUUCCAGC", "log2 enrichment": -1.22}
{"Strand": "AGUCCUGUGCUACACAUCGUAUGUACCGAAUCGGGGCCCCCGGCCCCCGGCCCCCGGGAAAGUAUUAUGUUACGCCGUUCGGAUCUGCAC", "log2 enrichment": -1.57}
{"Strand": "CCAACUCCUAUAAUUCCCUAUCUUUUAGUUUUAGUUGCAGAAACAUUUUGUGGUCAUUAAGCAUUGGGUGGGUAAAUUCAACCACUGUAA", "log2 enrichment": 0.985}
{"Strand": "GGUGUUGCUGGAAGAAGCCAAGGAUUUGCUCUCUGACUGGCUGGAUUCUACACUUGGCUGUGAUGUCACUGACAAUUCCAUCUUCUCCAA", "log2 enrichment": -0.302}
{"Strand": "AGUCCUGUGCUACACAUCGUAUGUACCGAAUCGGGGUUUGGGGUGGGGAAAAAGGGGAAAGUAUUAUGUUACGCCGUUCGGAUCUGCACU", "log2 enrichment": 0.324}
{"Strand": "CAGAACGAUCGAUACAGAAACCACGCUGCCGCCACCACACCAUCACCAUCGACAGAACAGUCCUUAAUCCAGAAACCUGAAAUGAAGGAA", "log2 enrichment": 0.0905}
{"Strand": "UAACUUUAGAGGAGGAUCUGAUGGAUAAGGCAGUGGACGUGGAUUUGGGGAUGGCUAUAAUGGGUAUGGAGGAGGACCUGGAGGUGGCAA", "log2 enrichment": -0.275}
{"Strand": "AAGUCCUGUGCUACACAUCGUAUGUACCGAAUCGGGUUUUUGGGUGGGAAAAAGGGAAAGUAUUAUGUUACGCCGUUCGGAUCUGCACUU", "log2 enrichment": -0.175}
{"data": "Block 3", "target": "CCNF, cyclin fold, Cln2 fusion (human)", "technique": "yeast growth competition, sequencing", "sample": "yeast", "setting": "strong parent motif", "relative to": "not given", "reading": "higher = stronger binding", "starting sequence": "PKN2 docking peptide (human); VSAVRKLDFSDTM"}
{"Variant": "VSAVDKLDFSDTM [R5D]", "normalised enrichment score": -0.338}
{"Variant": "VSAVRKLDRSDTM [F9R]", "normalised enrichment score": 0.171}
{"Variant": "VSAVRHLDFSDTM [K6H]", "normalised enrichment score": 6.84}
{"Variant": "VSAVRKLDFEDTM [S10E]", "normalised enrichment score": 7.05}
{"Variant": "VSAVRELDFSDTM [K6E]", "normalised enrichment score": 5.34}
{"Variant": "VSAVRKLDFADTM [S10A]", "normalised enrichment score": 7.25}
{"Variant": "VSAVRVLDFSDTM [K6V]", "normalised enrichment score": 6.49}
{"Variant": "VSAVKKLDFSDTM [R5K]", "normalised enrichment score": 5.11}
{"Variant": "VSAVRKLAFSDTM [D8A]", "normalised enrichment score": 7.92}
{"Variant": "VSYVRKLDFSDTM [A3Y]", "normalised enrichment score": 6.12}
{"Variant": "VSAVRKLWFSDTM [D8W]", "normalised enrichment score": 8.74}
{"Variant": "VNAVRKLDFSDTM [S2N]", "normalised enrichment score": 7.16}
{"Variant": "VSAVRKLDYSDTM [F9Y]", "normalised enrichment score": 5.54}
{"Variant": "VPAVRKLDFSDTM [S2P]", "normalised enrichment score": 6.98}
{"Variant": "VEAVRKLDFSDTM [S2E]", "normalised enrichment score": 6.11}
{"Variant": "VSAVRKLTFSDTM [D8T]", "normalised enrichment score": 7.04}
{"Variant": "VSAVRKLDFSVTM [D11V]", "normalised enrichment score": 7.48}
{"Variant": "VSAVRKLRFSDTM [D8R]", "normalised enrichment score": 8.28}
{"data": "Block 4", "target": "Centromere-binding protein 1, full length, His-tagged (CBF1, Saccharomyces cerevisiae, UniProt P17106, residues 1-351)", "technique": "competition protein-binding microarray", "molecule type": "double-stranded DNA, one strand shown", "sample": "in vitro", "tested at": "2 µM", "setting": "whole 60-bp probe, lowest competitor level", "together with": "Pho4 competitor, 0.05 µM", "reading": "higher = stronger binding", "all sequences stand within": "… GTCTTGATTCGCTTGACGCTGCTG", "UniProt P17106, sequence (whole entry, looked up)": "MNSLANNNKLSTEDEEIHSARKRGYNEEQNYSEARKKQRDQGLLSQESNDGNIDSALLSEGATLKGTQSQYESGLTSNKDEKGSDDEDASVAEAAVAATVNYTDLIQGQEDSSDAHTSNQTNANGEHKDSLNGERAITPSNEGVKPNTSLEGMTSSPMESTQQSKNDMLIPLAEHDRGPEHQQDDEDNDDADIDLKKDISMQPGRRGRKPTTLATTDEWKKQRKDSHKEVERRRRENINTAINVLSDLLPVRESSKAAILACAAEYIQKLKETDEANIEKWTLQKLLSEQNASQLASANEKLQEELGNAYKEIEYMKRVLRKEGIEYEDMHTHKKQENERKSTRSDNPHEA"}
{"Strand": "CAGTTCTACTGGTTCGACGTGCTTTACACCCGCAAC", "fluorescence intensity [a.u.]": 64.4}
{"Strand": "AAAGCGGTAATTTGAGCGGTGGGTGCAGATATCTAT", "fluorescence intensity [a.u.]": 83.3}
{"Strand": "CGTCCTAGTGATTGGTGCGTGGGTGCCATGAGGAAG", "fluorescence intensity [a.u.]": 97.9}
{"Strand": "ACTTCTACTAAGAGTAACGTGGCCGAGAAGAGAAGA", "fluorescence intensity [a.u.]": 109}
{"Strand": "TTCAGACAAATCCAACATGTGGGAGGAGAATAATGG", "fluorescence intensity [a.u.]": 92.3}
{"Strand": "GCGCCGTTCTCCACAGCCGTGATGGCTAAAGTGGCG", "fluorescence intensity [a.u.]": 67.5}
{"Strand": "CAATTACAGAAATGCCCCGTGTAACAAGATGCGCTG", "fluorescence intensity [a.u.]": 101}
{"Strand": "AGCCTGTCTATGGCCAAGCCATGTCAAGTACTACAA", "fluorescence intensity [a.u.]": 56.5}
{"Strand": "AAAGCGGTAATTTGAAGCGTGGGTGCAGATATCTAT", "fluorescence intensity [a.u.]": 78.9}
{"Strand": "TTTGGGGTACGGAACAACGTGATTGGGAAGCTGCTC", "fluorescence intensity [a.u.]": 449}
{"Strand": "CGGGGTTAAGTTTTTCACGTGACATGCTTGCAGCAG", "fluorescence intensity [a.u.]": 5790}
{"Strand": "GAACGTTAGTACTTGACCGTGCAATAATGGGAAGCA", "fluorescence intensity [a.u.]": 75.2}
{"Strand": "CTTATTCGTATGAAGCATGTGACGCTGGTATAAGAC", "fluorescence intensity [a.u.]": 995}
{"Strand": "AATGAGTTCACTCACCACGTTAGAGTCTCCCAATAT", "fluorescence intensity [a.u.]": 84.7}
{"Strand": "TGCATTGTTAAAAAGCACGTCTATGTGGTCTTCCAG", "fluorescence intensity [a.u.]": 75.5}
{"Strand": "CGTCCTAGCGATTGAATTGTGGGTGCCATGAGGAAG", "fluorescence intensity [a.u.]": 86.7}
